Measurements gathered from unrelated publications.
Protocols differ between the studies behind these lines.
Method: steady-state kinetics
B1: enzyme A178R/D177A/M179H/P184R (Levilactobacillus brevis, UniProt Q03Q85); chain MKVTVVGCTHAGTFAIKQILAEHPDAEVTVYERNDVISFLSCGIALYLGGKVADPQGLFYSSPEELQKLGANVQMNHNVLAIDPDQKTVTVEDLTNHAQTTESYDKLVMTSGSWPIVPKIPGIDSDRVKLCKNWAHAQALIEDAKEAKRITVIGAGYIGAELAEAYSTTGHDVTLIARHARVMRKYFDADFTDVIEQDYRDHGVQLALGETVESFTDSATGLTIKTDKNSYETDLAILCIGFRPNTDLLKGKVDMAPNGAIITDDYMRSSNPDIFAAGDSAAVHYNPTHQNAYIPLATNAVRQGILVGKNLVKPTVKYMGTQSSSGLALYDRTIVSTGLTLAAAKQQGLNAEQVIVEDNYRPEFMPSTEPVLMSLVFDPDTHRILGGALMSKYDVSQSANTLSVCIQNENTIDDLAMVDMLFQPNFDRPFNYLNILAQAAQAKVAQSVNA
B2: focA F75A (Escherichia coli, UniProt P0AC23); chain MKADNPFDLLLPAAMAKVAEEAGVYKATKHPLKTFYLAITAGVFISIAFVFYITATTGTGTMPFGMAKLVGGICASLGLILCVVCGADLFTSTVLIVVAKASGRITWGQLAKNWLNVYFGNLVGALLFVLLMWLSGEYMTANGQWGLNVLQTADHKVHHTFIEAVCLGILANLMVCLAVWMSYSGRSLMDKAFIMVLPVAMFVASGFEHSIANMFMIPMGIVIRDFASPEFWTAVGSAPENFSHLTVMNFITDNLIPVTIGNIIGGGLLVGLTYWVIYLRENDHH
B3: carbamoyl phosphate synthetase large subunit A23F/C24F/I18W (Escherichia coli, UniProt P00968); chain PKRTDIKSILILGAGPWVIGQFFEFDYSGAQACKALREEGYRVILVNSNPATIMTDPEMADATYIEPIHWEVVRKIIEKERPDAVLPTMGGQTALNCALELERQGVLEEFGVTMIGATADAIDKAEDRRRFDVAMKKIGLETARSGIAHTMEEALAVAADVGFPCIIRPSFTMGGSGGGIAYNREEFEEICARGLDLSPTKELLIDESLIGWKEYEMEVVRDKNDNCIIVCSIENFDAMGIHTGDSITVAPAQTLTDKEYQIMRNASMAVLREIGVETGGSNVQFAVNPKNGRLIVIEMNPRVSRSSALASKATGFPIAKVAAKLAVGYTLDELMNDITGGRTPASFEPSIDYVVTKIPRFNFEKFAGANDRLTTQMKSVGEVMAIGRTQQESLQKALRGLEVGATGFDPKVSLDDPEALTKIRRELKDAGADRIWYIADAFRAGLSVDGVFNLTNIDRWFLVQIEELVRLEEKVAEVGITGLNADFLRQLKRKGFADARLAKLAGVREAEIRKLRDQYDLHPVYKRVDTCAAEFATDTAYMYSTYEEECEANPSTDREKIMVLGGGPNRIGQGIEFDYCCVHASLALREDGYETIMVNCNPETVSTDYDTSDRLYFEPVTLEDVLEIVRIEKPKGVIVQYGGQTPLKLARALEAAGVPVIGTSPDAIDRAEDRERFQHAVERLKLKQPANATVTAIEMAVEKAKEIGYPLVVRPSYVLGGRAMEIVYDEADLRRYFQTAVSVSNDAPVLLDHFLDDAVEVDVDAICDGEMVLIGGIMEHIEQAGVHSGDSACSLPAYTLSQEIQDVMRQQVQKLAFELQVRGLMNVQFAVKNNEVYLIEVNPRAARTVPFVSKATGVPLAKVAARVMAGKSLAEQGVTKEVIPPYYSVKEVVLPFNKFPGVDPLLGPEMRSTGEVMGVGRTFAEAFAKAQLGSNSTMKKHGRALLSVREGDKERVVDLAAKLLKQGFELDATHGTAIVLGEAGINPRLVNKVHEGRPHIQDRIKNGEYTYIINTTSGRRAIEDSRVIRRSALQYKVHYDTTLNGGFATAMALNADATEKVISVQEMHAQIK
B4: MCAT R178G (Homo sapiens, UniProt Q8IVS2); chain GQGSQVVGMGRGLLNYPRVRELYAAARRVLGYDLLELSLHGPQETLDRTVHCQPAIFVASLAAVEKLHHLQPSVIENCVAAAGFSVGEFAALVFAGAMEFAEGLYAVKIGAEAMQEASEAVPSGMLSVLGQPQSKFNFACLEAREHCKSLGIENPVCEVSNYLFPDCRVISGHQEALRFLQKNSSKFHFRRTRMLPVSGAFHTRLMEPAVEPLTQALKAVDIKKPLVSVYSNVHAHRYRHPGHIHKLLAQQLVSPVKWEQTMHAIYERKKGRGFPQTFEVGPGRQLGAILKSCNMQAWKSYSAVDVL
B5: enzyme E323G (UniProt H9KVH3); chain ADASQIVSEMGAGWNLGNQLEAAVNGTPNETAWGNPTVTPELIKKVKAAGFKSIRIPVSYLNNIGSAPNYTINAAWLNRIQQVVDYAYNEGLYVIINIHGDGYNSVQGGWLLVNGGNQTAIKEKYKKVWQQIATKFSNYNDRLIFESMNEVFDGNYGNPNSAYYTNLNAYNQIFVDTVRQTGGNNNARWLLVPGWNTNIDYTVGNYGFTLPTDNYRSSAIPSSQKRIMISAHYYSPWDFAGEENGNITQWGATSTNPAKKSTWGQEDYLESQFKSMYDKFVTQGYPVVIGGFGSIDKTSYDSSNNVYRAAYAKAVTAKAKKYKMVPVYWDNGHNGQHGFALFNRSNNTVTQQNIINAIMQGMQ
B6: LYS1 C205S/D319A (Saccharomyces cerevisiae, UniProt P38998); chain MAAVTLHLRAETKPLEARAALTPTTVKKLIAKGFKIYVEDSPQSTFNINEYRQAGAIIVPAGSWKTAPRDRIIIGLKEMPETDTFPLVHEHIQFAHCYKDQAGWQNVLMRFIKGHGTLYDLEFLENDQGRRVAAFGFYAGFAGAALGVRDWAFKQTHSDDEDLPAVSPYPNEKALVKDVTKDYKEALATGARKPTVLIIGALGRSGSGAIDLLHKVGIPDANILKWDIKETSRGGPFDEIPQADIFINCIYLSKPIAPFTNMEKLNNPNRRLRTVVDVSADTTNPHNPIPIYTVATVFNKPTVLVPTTAGPKLSVISIAHLPSLLPREASEFFSHDLLPSLELLPQRKTAPVWVRAKKLFDRHCARVKRSSRL
B7: Nudt8 (Mus musculus, UniProt Q9CR24); chain MLPDGLSAEDEQRCRQLLARTTARLRSRPAAAAVLVPLCLVRGVPALLYTLRSSRLVGRHKGEVSFPGGKCDPDDQDVIHTALRETQEELGLEVPKEHVWGVLQPVYDREKATIVPVLANVGPLDLQSLRPNLEEVDEVFEMSLAHLLQTQNQGYTHFCQGGHFSYTLPVFLHGPHRVWGLTAVITELTLKLLAPGFYQPSLAVPELPRG
B8: enzyme N158A (Sinorhizobium meliloti, UniProt Q92UV7); chain MTNAEVTIAVRHEPMRIAGRLVDTDDRVEVRYPWNDTVVGTVPAGRAEHAREAFAIAAAYQPKLTRYERQKILLATAEALAARKEEISDVITLELGISKADSLYEVGRAFDVFTLAGQMCIRDDGEIFSCDLTPHGKARKIFTMREPLTAISAITPFAHPLNMVAHKVAPAIATNNCVVVKPTELTPMTALLLADILYEAGLPPEMLSVVTGWPADIGMEMITNPHVDLVTFTGSVPVGKLIAANAHYKRQVLELGGNDPLIILNDLSDDDLARAADLAVAGATKNSGQRCTAVKRILCQESVADRFVPLVLERAKRLRFGDPMDRSTDLGTVIHEKAAALFEERVMRAAEEGADILYHPGRSGALLPPIVVDRVPHQSDLVLEETFGPIIPIVRVPDDDDATITLSNSTAFGLSSGVCTNDYRRMQKYIAGLKVGTVNIWEVPGYRIEMSPFGGIKDSGNGYKEGVIEAMKSFTNVKTFSLPWP
B9: KS T527V/T528V (Arabidopsis thaliana, UniProt Q9SAK2); chain ANNVSFEQTKEKIRKMLEKVELSVSAYDTSWVAMVPSPSSQNAPLFPQCVKWLLDNQHEDGSWGLDNHDHQSLKKDVLSSTLASILALKKWGIGERQINKGLQFIELNSALVTDETIQKPTGFDIIFPGMIKYARDLNLTIPLGSEVVDDMIRKRDLDLKCDSEKFSKGREAYLAYVLEGTRNLKDWDLIVKYQRKNGSLFDSPATTAAAFTQFGNDGCLRYLCSLLQKFEAAVPSVYPFDQYARLSIIVTLESLGIDRDFKTEIKSILDETYRYWLRGDEEICLDLATCALAFRLLLAHGYDVSYDPLKPFAEESGFSDTLEGYVKNTFSVLELFKAAQSYPHESALKKQCCWTKQYLEMELSSWVKTSVRDKYLKKEVEDALAFPSYASLERSDHRRKILNGSAVENTRVTKTSYRLHNICTSDILKLAVDDFNFCQSIHREEMERLDRWIVENRLQELKFARQKLAYCYFSGAATLFSPELSDARISWAKGGVLVVVVDDFFDVGGSKEELENLIHLVEKWDLNGVPEYSSEHVEIIFSVLRDTILETGDKAFTYQGRNVTHHIVKIWLDLLKSMLREAEWSSDKSTPSLEDYMENAYISFALGPIVLPATYLIGPPLPEKTVDSHQYNQLYKLVSTMGRLLNDIQGFKRESAEGKLNAVSLHMKHERDNRSKEVIIESMKGLAERKREELHKLVLEEKGSVVPRECKEAFLKMSKVLNLFYRKDDGFTSNDLMSLVKSVIYEPVSLQEESLT
B10: ACP1 (Homo sapiens, UniProt P24666); chain AEQATKSVLFVCLGNICRSPIAEAVFRKLVTDQNISENWRVDSAATSGYEIGNPPDYRGQSCMKRHGIPMSHVARQITKEDFATFDYILCMDESNLRDLNRKSNQVKTCKAKIELLGSYDPQKQLIIEDPYYGNDSDFETVYQQCVRCCRAFLEKAH
Chain of UniProt P19337 (whole entry, looked up): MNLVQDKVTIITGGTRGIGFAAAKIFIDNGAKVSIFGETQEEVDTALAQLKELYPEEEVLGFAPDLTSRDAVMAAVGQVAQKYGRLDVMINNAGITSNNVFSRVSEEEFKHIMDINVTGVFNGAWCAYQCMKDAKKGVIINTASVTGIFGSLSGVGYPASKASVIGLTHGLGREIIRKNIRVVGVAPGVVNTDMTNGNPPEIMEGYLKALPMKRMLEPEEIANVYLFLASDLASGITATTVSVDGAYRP

Substance	substrate	pH	temperature	notes	together with	Km
B1 (enzyme A178R/D177A/M179H/P184R)	NC(=O)C1=CN([C@@H]2O[C@H](COP(=O)(O)OP(=O)(O)OC[C@H]3O[C@@H](n4cnc5c(N)ncnc54)[C@H](OP(=O)(O)O)[C@@H]3O)[C@@H](O)[C@H]2O)C=CC1	pH 7.5	37 °C	–	–	15 µM
B2 (focA F75A)	O=CO	pH 6.8	19 °C	apparent, not purified	–	100000 µM
B3	Nc1ncnc2c1ncn2[C@@H]1O[C@H](COP(=O)(O)OP(=O)(O)OP(=O)(O)O)[C@@H](O)[C@H]1O	pH 7.6	–	KCl 100 mM	glutamine 10 mM, ornithine 10 mM	250 µM
BaiA2 (Clostridium scindens, UniProt P19337)	C[C@H](CCC(=O)SCCNC(=O)CCNC(=O)[C@H](O)C(C)(C)COP(=O)(O)OP(=O)(O)OC[C@H]1O[C@@H](n2cnc3c(N)ncnc32)[C@H](O)[C@@H]1OP(=O)(O)O)[C@H]1CC[C@H]2[C@@H]3CC[C@@H]4C[C@H](O)CC[C@]4(C)[C@H]3CC[C@]12C	pH 8.7	37 °C	–	NAD+	18 µM
B4 (MCAT R178G)	CC(=O)SCCNC(=O)CCNC(=O)[C@H](O)C(C)(C)COP(=O)(O)OP(=O)(O)OC[C@H]1O[C@@H](n2cnc3c(N)ncnc32)[C@H](O)[C@@H]1OP(=O)(O)O	pH 6.8	20 °C	labelled substrate	holo-ACP 20 µM	32.2 µM
B5 (enzyme E323G)	OC[C@H]1O[C@H](F)[C@H](O)[C@@H](O)[C@@H]1O[C@@H]1O[C@H](CO[C@H]2OC[C@@H](O)[C@H](O)[C@H]2O)[C@@H](O[C@@H]2O[C@H](CO[C@H]3OC[C@@H](O)[C@H](O)[C@H]3O)[C@@H](O[C@@H]3O[C@H](CO[C@H]4OC[C@@H](O)[C@H](O)[C@H]4O)[C@@H](O)[C@H](O)[C@H]3O)[C@H](O)[C@H]2O)[C@H](O)[C@H]1O	pH 7.5	30 °C	apparent	–	9500 µM
B6 (LYS1 C205S/D319A)	NC(=O)C1=CN([C@@H]2O[C@H](COP(=O)(O)OP(=O)(O)OC[C@H]3O[C@@H](n4cnc5c(N)ncnc54)[C@H](O)[C@@H]3O)[C@@H](O)[C@H]2O)C=CC1	pH 7.2	25 °C	–	Lys and α-Kg	230 µM
B7 (Nudt8)	CCC(=O)SCCNC(=O)CCNC(=O)[C@H](O)C(C)(C)COP(=O)(O)OP(=O)(O)OC[C@H]1O[C@@H](n2cnc3c(N)ncnc32)[C@H](O)[C@@H]1OP(=O)(O)O	pH 8.5	–	–	2 mM Mn2+	318 µM
LovD A86V/C40A/C60N (Aspergillus terreus)	CCC(C)(C)C(=O)SCCC(=O)OC	–	25 °C	10% DMSO	2 mM MJA	660 µM
B8 (enzyme N158A)	NC(=O)c1ccc[n+]([C@@H]2O[C@H](COP(=O)(O)OP(=O)(O)OC[C@H]3O[C@@H](n4cnc5c(N)ncnc54)[C@H](O)[C@@H]3O)[C@@H](O)[C@H]2O)c1	pH 7.5	30 °C	cofactor varied	–	40 µM
B9 (KS T527V/T528V)	C=C1CC[C@@H]2C(C)(C)CCC[C@@]2(C)[C@@H]1CC/C(C)=C/COP(=O)(O)OP(=O)(O)O	pH 7.2	30 °C	GGPP-derived substrate	–	1.5 µM
B10 (ACP1)	O=[N+]([O-])c1ccc(OP(=O)(O)O)cc1	pH 6.5	37 °C	–	–	6570 µM

Some of these lines once more:
Substance	substrate	pH	temperature	notes	together with	Km
B6 (LYS1 C205S/D319A)	NC(=O)C1=CN([C@@H]2O[C@H](COP(=O)(O)OP(=O)(O)OC[C@H]3O[C@@H](n4cnc5c(N)ncnc54)[C@H](O)[C@@H]3O)[C@@H](O)[C@H]2O)C=CC1	pH 7.2	25 °C	–	Lys and α-Kg	230 µM
